Experimental data from different studies.
Each line is one published result; not all experiments were run side by side. Several values in a cell are separate wells, animals, samples, runs or records. ± marks the error that the study gave.

SMILES | cell line | test | conditions | scale | quantity | value
C=C(NC(=O)c1csc(-c2cccnc2)n1)C(=O)NC(=C)C(=O)OC | NCI-H358 | cell viability |  |  | EC50 | 5.7 µM
Cc1ccc(-n2cc(CSc3nc4ccccc4n3Cc3cn(-c4ccc(C)cc4)nn3)nn2)cc1 | Caco-2 | MTT | 62.5 ppm |  | viability | 16.1%
C=CC(=O)N1CCCC(n2c(=O)c3ncccc3n(Cc3ccc(Oc4ccccc4)cc3)c2=O)C1 (stereo not drawn) | Rec1 | refers to: TXNIP | concentration not given | baseline: untreated | log2 fold change | -0.68
Cn1ncc2cc(-c3cncc(Cl)c3N3CCC4(CCNC4=O)CC3)ccc21 | LS174T | gene expression, microarray, refers to: BHLHE41 mRNA | concentration not given, 24 h | baseline: untreated cells | log2 fold change | 2.06
CCN(CC)CC(=O)Nc1cccc(-n2cc(-c3ccc4ccc(-c5cn(-c6cccc(NC(=O)CN(CC)CC)c6)nn5)cc4c3)nn2)c1 | RCC4 | PCR angiogenesis array, refers to: IFNA1 | 5 x IC50, 2 h, normoxia | baseline: untreated | fold regulation | -2.25
CC(C)(C)c1cc(-c2ccc3cccnc3n2)nc(-c2ccc3cccnc3n2)c1.[Cl-].[Cl-].[Ru+2].c1cnc2c(c1)ccc1cccnc12 | B16-F10 | cytotoxicity, resazurin | dark |  | EC50 | 231 ± 9 µM
Cc1cc(=O)oc2cc(OCCCCCCSC#N)ccc12 | T47D | cell growth or viability, SRB |  |  | GI50 | 3.6 µM
COc1ccc2c(c1)c(CC(=O)[Se]CC(=O)Nc1cccc(C(F)(F)F)c1)c(C)n2C(=O)c1ccc(Cl)cc1 | NCI60 breast subpanel | cell growth | 10 µM, 48 h, one-dose |  | mean growth percent | -84%
Cc1ncsc1-c1ccc(C(C)NC(=O)C2CC(O)CN2C(=O)C(NC(=O)CCCCCCCCCCN2CCCC(Nc3ncc(Cl)c(Nc4ccccc4S(=O)(=O)C(C)C)n3)C2)C(C)(C)C)cc1 (stereo not drawn) | 22Rv1 | RNA-seq, refers to: SEC22A mRNA | concentration not given | baseline: DMSO | log2 fold change | -1.01
COC1=C2CC(C)CC(OC)C(O)C(C)C=C(C)C(OC(N)=O)C(OC)C=CC=C(C)C(=O)NC(=CC1=O)C2=O (stereo not drawn) | Rh30 | ChIP-seq, refers to: H3K36me3 peak | concentration not given, SMPD4 intron chr2:130920200-130937399 | baseline: untreated control | log fold change | -0.502
CN1CCCNC(=O)c2cccc(c2)C(=O)NCCCN(C)CCCNc2cccc3c2C(=O)c2cccc(c2C3=O)NCCC1 | SAS | RNA-Seq, refers to: ACTA2 mRNA | 1 µM, 6 h | baseline: untreated cells | log2 fold change | 1.23
CC(C)(C)c1cc(-c2ccc3cc4ccccc4nc3n2)nc(-c2ccc3cc4ccccc4nc3n2)c1.[Cl-].[Cl-].[Ru+2].c1ccc2cc3nc4c5cccnc5c5ncccc5c4nc3cc2c1 | B16-F10 | photocytotoxicity, resazurin | visible light 400-700 nm, 20 mW, 100 J/cm2 |  | EC50 | 1.92 µM
Cc1c2ccnc(C(=O)N[C@H](C)CN(C)C)c2cc2c3cc(OCCCN4CCN(C)CC4)ccc3n(C)c12 | C9orf72 patient-derived iPSC | qRT-PCR, refers to: C9orf72 intron 1 | 0.5 µM, with: siRNA 500 nM |  | C9orf72 intron RNA level | 59%
CSC(=S)N/N=C(\C)c1ccc(Nc2nnc(-c3ccc(Cl)cc3)c3ccccc23)cc1 | HepG2 | cell growth or viability, MTT | 0.156 µM, 24 h |  | viability | 51.3%
CCOc1cncc(-c2ccc(NC(=O)C3(c4ccnc(NS(=O)(=O)C5CC5)n4)CCOCC3)nc2)n1 | MX1 | cell growth or viability, ATP luminescence | 72 h |  | IC50 | 4.57 µM
CO[C@@H]1[C@@H](OC(N)=O)[C@@H](O)[C@H](Oc2ccc3c(O)c(NC(=O)c4ccc(O)c(CC=C(C)C)c4)c(=O)oc3c2C)OC1(C)C | HCT-116 BRCA2-/- |  | 150 µM, replicate 2 |  | colony count | 13
[Cl-].[Cl-].[Ru+2].c1cc(-c2ccc3cccnc3n2)nc(-c2ccc3cccnc3n2)c1.c1ccc2cc3nc4c5cccnc5c5ncccc5c4nc3cc2c1 | B16-F10 | resazurin | with: light 523 nm, 20 mW, 100 J/cm2 |  | EC50 | 27.4 µM
COc1cc(N2CCN(C(=O)C3CCCN3)CC2)ccc1Nc1ncc(Cl)c(Nc2ccccc2P(C)(C)=O)n1 (stereo not drawn) | NCI-H3122 | CCK-8 | 50 nM, 48 h |  | viability | 35%
O=C(C[Se]C(=O)C12CC3CC(CC(C3)C1)C2)Nc1cccc(C(F)(F)F)c1 | NCI60 breast subpanel | cell growth | 10 µM, 48 h, one-dose |  | mean growth percent | -40.1%
NC(=O)c1ccc(-c2ccccc2Cl)c2c3c([nH]c12)CC[C@H](N)C3 | HuCCT-1 | cell growth or viability |  |  | IC50 | 0.00454 µM
CC1(C)CC[C@@]2(CO)C(=C3C=C[C@@H]4[C@@]5(C)CC[C@H](O)[C@@](C)(CO)[C@@H]5CC[C@@]4(C)[C@]3(C)C[C@@H]2O)C1 | HepG2, SIRT1 siRNA | Western blot, refers to: Deptor | concentration not given, high dose, unit not given, with: ethanol | baseline: β-actin | protein level | 0.829 and 0.891 and 0.741
CC(C)c1ccc(N(C)c2ccc3c(c2)OCC[C@H]3CNc2cnccc2C(=O)O)cc1 | SCaBER | cell viability, CellTiter-Glo | 7 days |  | IC50 | 0.0152 µM
CNS(=O)(=O)Nc1nccc(Cc2c(C)c3ccc(Oc4ncccc4F)cc3oc2=O)c1F | NCI-H2009 | cell viability | 7 days |  | IC50 | 0.0287 µM
C=CC(=O)N1[C@@H](c2ccc3c(c2)OCO3)c2[nH]c3ccccc3c2C[C@H]1C(=O)NC1CC1 | rat DRG neurons |  | 0.1235 µM, 48 h, with: vincristine 40 nM |  | mean neuron degeneration | 82.4%

Some of these lines once more:
SMILES | cell line | test | conditions | scale | quantity | value
CNS(=O)(=O)Nc1nccc(Cc2c(C)c3ccc(Oc4ncccc4F)cc3oc2=O)c1F | NCI-H2009 | cell viability | 7 days |  | IC50 | 0.0287 µM
COC1=C2CC(C)CC(OC)C(O)C(C)C=C(C)C(OC(N)=O)C(OC)C=CC=C(C)C(=O)NC(=CC1=O)C2=O (stereo not drawn) | Rh30 | ChIP-seq, refers to: H3K36me3 peak | concentration not given, SMPD4 intron chr2:130920200-130937399 | baseline: untreated control | log fold change | -0.502
COc1ccc2c(c1)c(CC(=O)[Se]CC(=O)Nc1cccc(C(F)(F)F)c1)c(C)n2C(=O)c1ccc(Cl)cc1 | NCI60 breast subpanel | cell growth | 10 µM, 48 h, one-dose |  | mean growth percent | -84%
CC(C)c1ccc(N(C)c2ccc3c(c2)OCC[C@H]3CNc2cnccc2C(=O)O)cc1 | SCaBER | cell viability, CellTiter-Glo | 7 days |  | IC50 | 0.0152 µM
